Measured values of several laboratories.
Compare with care: the assays were run in different laboratories. Numbers after ± are the reported error.
Chain of UniProt Q8WU67 (whole entry, looked up): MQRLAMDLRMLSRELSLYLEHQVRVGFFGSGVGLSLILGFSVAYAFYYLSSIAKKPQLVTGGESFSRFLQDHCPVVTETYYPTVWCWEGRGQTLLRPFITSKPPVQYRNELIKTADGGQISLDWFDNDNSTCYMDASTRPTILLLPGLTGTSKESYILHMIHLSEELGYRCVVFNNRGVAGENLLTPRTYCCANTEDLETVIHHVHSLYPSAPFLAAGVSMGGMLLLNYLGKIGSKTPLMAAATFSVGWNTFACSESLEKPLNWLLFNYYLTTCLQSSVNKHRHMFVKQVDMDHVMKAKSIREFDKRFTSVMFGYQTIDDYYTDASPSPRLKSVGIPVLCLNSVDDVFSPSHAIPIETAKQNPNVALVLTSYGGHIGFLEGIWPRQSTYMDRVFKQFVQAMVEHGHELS
Chain of UniProt Q16539 (whole entry, looked up): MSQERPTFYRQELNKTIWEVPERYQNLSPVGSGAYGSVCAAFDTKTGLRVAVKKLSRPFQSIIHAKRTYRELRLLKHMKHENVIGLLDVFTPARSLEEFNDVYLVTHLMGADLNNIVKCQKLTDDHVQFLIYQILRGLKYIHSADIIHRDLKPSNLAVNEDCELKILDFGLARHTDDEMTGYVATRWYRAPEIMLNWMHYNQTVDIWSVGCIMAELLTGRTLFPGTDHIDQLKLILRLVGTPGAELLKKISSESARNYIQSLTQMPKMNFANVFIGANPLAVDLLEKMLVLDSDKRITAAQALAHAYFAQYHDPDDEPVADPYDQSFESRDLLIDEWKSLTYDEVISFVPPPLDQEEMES

Structure (SMILES)	target or system	test	system	conditions	scale	quantity	value
COc1ncnn2ccc(-c3cnc4nc(C)n(Cc5nnc([C@@H](C)F)o5)c4c3)c12		phase 1 trial	human patients	oral, dose not given, CTCAE grade 3		patients with decreased WBC count	7.1%
CC[C@H](C)[C@H](NC(=O)[C@H](Cc1ccccc1)NC(=O)[C@H](CCC(=O)O)NC(=O)[C@H](CCCNC(=N)N)NC(=O)[C@H](C)NC(=O)[C@H](C)NC(=O)[C@H](CCC(N)=O)NC(=O)[C@H](CCC(=O)O)NC(=O)[C@H](CCC(=O)O)NC(=O)[C@H](CC(C)C)NC(=O)[C@H](Cc1ccc(O)cc1)NC(=O)[C@H](CO)NC(=O)[C@H](CO)NC(=O)[C@@H](NC(=O)[C@H](CC(=O)O)NC(=O)[C@H](CO)NC(=O)[C@@H](NC(=O)[C@H](Cc1ccccc1)NC(=O)[C@@H](NC(=O)CNC(=O)[C@H](CCC(=O)O)NC(=O)[C@H](C)NC(=O)CCc1c[nH]cn1)[C@@H](C)O)[C@@H](C)O)C(C)C)C(=O)N[C@@H](C)C(=O)N[C@@H](Cc1c[nH]c2ccccc12)C(=O)N[C@@H](CC(C)C)C(=O)N[C@H](C(=O)N[C@@H](CCCNC(=N)N)C(=O)NCC(=O)N[C@@H](CCCNC(=N)N)C(=O)N[C@@H](CCCCNC(=O)COCCOCCNC(=O)COCCOCCNC(=O)CC[C@H](NC(=O)CCCCCCCCCCCCCCCCC(=O)O)C(=O)O)C(=O)NCC(=O)NCC(=O)N[C@@H](CO)C(=O)N[C@@H](CCCCNc1c(NCCCCCN(O)C(=O)CCC(=O)NCCCCCN(O)C(=O)CCC(=O)NCCCCCN(O)C(C)=O)c(=O)c1=O)C(=O)O)C(C)C [zirconium-89 labelled]		gamma counting	rat, skin of neck	subcutaneous, 3 nmol/kg, 72 h		tissue uptake	0.14 %ID/g
C[C@@H](O)[C@@H](CO)NC(=O)[C@@H](CCCNC(=N)N)NC(=O)[C@@H]1CCCN1C(=O)[C@@H]1CSSC[C@H](NC(=O)[C@H](Cc2ccccc2)NC(=O)CN2CCN(CC(=O)O)CCN(CC(=O)O)CCN(CC(=O)O)CC2)C(=O)N[C@@H](Cc2ccc(O)cc2)C(=O)N[C@@H](Cc2ccccc2)C(=O)N[C@@H](CCC(N)=O)C(=O)N[C@@H](CC(N)=O)C(=O)N1 [gallium-68 labelled]			Wistar rat, healthy, urinary bladder	intravenous, 8 MBq, 120 min, mean		tissue uptake	0.06 %ID/g
CC(C)C[C@H](NC(=O)[C@H](CCCCN)NC(=O)OCC1c2ccccc2-c2ccccc21)C(=O)N[C@H](C(=O)N[C@@H](Cc1ccccc1)C(=O)N[C@@H](Cc1ccccc1)C(=O)N[C@@H](CCCCN)C(=O)NCC(=O)N[C@@H](Cc1ccccc1)C(=O)N[C@@H](C)C(=O)N[C@@H](Cc1c[nH]c2ccccc12)C(=O)N[C@@H](CC(N)=O)C(=O)N[C@H](C(=O)N[C@H]1CSSC[C@@H](C(=O)N[C@@H](Cc2c[nH]cn2)C(=O)N[C@@H](CCCNC(=N)N)C(=O)N[C@@H](CCCNC(=N)N)C(=O)N[C@@H](C)C(=O)N[C@@H](CC(N)=O)C(N)=O)NC(=O)[C@H](C(C)C)NC(=O)[C@H](CCCNC(=N)N)NC(=O)[C@H](C(C)C)NC(=O)CNC(=O)[C@H](CC(N)=O)NC(=O)[C@H](CCCNC(=N)N)NC(=O)[C@H](Cc2ccc(O)cc2)NC(=O)[C@H](C(C)C)NC1=O)C(C)C)C(C)C			ICR mouse	ip, 10 mg/kg	direction not given	breathing score	0
C[C@]1(CO)Cc2ncn(-c3ccc(C#N)c(Cl)c3)c2C(=O)O1			human, plasma	40 mg single dose, geometric mean		half-life	5.2 h
CN1CC[C@@H](c2c(O)cc(O)c3c(=O)cc(-c4ccc(C(F)(F)F)cc4Cl)oc23)[C@@H]1CO		item: Hyperglycemia	relapsed B-cell malignancies or AML	oral, 100 mg, grade 3-4, continuous dosing		patients with adverse event	12.5%
O=C(c1ccc(F)c(F)c1Nc1ccc(I)cc1F)N1CC(O)([C@@H]2CCCCN2)C1			patients aged 2 to 6 years	oral, dose not given		fatal adverse events	0%
O=C(c1ccc(Cl)cc1)N1CCN2C(=O)N(OC(=O)N3CCOc4ccccc43)C(=O)C2C1 (stereo not shown)	ABHD3 (Homo sapiens, UniProt Q8WU67)	enzyme activity, inhibitor, MS-based ABPP	SW-620 in situ	10 µM, 2 h, 37 °C	relative to: compound over DMSO, lower = stronger inhibition	median ratio	1.09
C[C@@H](NC(=O)N1C(=O)[C@H](Cc2ccnc(N)c2)[C@H]1C(=O)O)C1CCCCC1			healthy adult Chinese volunteers	continuous intravenous infusion, 1.5 mg/kg/h, 5-day infusion, CTCAE 5.0 grading		incidence of AEs excluding prolonged aPTT	25%
C[C@H]1CN(c2n[nH]c3nc(N[C@H]4CC[C@H](NS(=O)(=O)CCC(F)(F)F)CC4)ncc23)CCO1	MAPK14 (Homo sapiens, UniProt Q16539)	Kinobeads competition	HEK293, K562, placenta lysate	0.16 µM, unit not given	relative to: vehicle	remaining binding	0.87
C=CC(=O)N[C@H]1C=C(C)c2c(-c3cnc4ccccc4c3)c3c(N)ncnc3n2C1			male Han Wistar rat, brain	intravenous infusion, 2 µmol/kg/h, 4 h	relative to: plasma	tissue/plasma ratio	0.023 ± 0.01
O=C1Nc2cc3[nH]nc(-c4ccncc4)c3cc2CN1Cc1ccccc1		CTCAE v4.03	advanced solid tumour patients	intravenous, 0.45 mg/kg, schedules 1/2		patients with decreased appetite	0%
CC(=O)c1c(C)c2cnc(Nc3ccc(C4CCN(CCS(C)(=O)=O)CC4)cn3)nc2n(C2CCCC2)c1=O			HR+/HER2- advanced breast cancer patients	oral, 100 mg twice daily, grade 3/4,, monotherapy		patients with ALT increased	0%
CO[C@H]1C[C@@H]2CC[C@@H](C)[C@@](O)(O2)C(=O)C(=O)N2CCCC[C@H]2C(=O)O[C@H]([C@H](C)C[C@@H]2CC[C@@H](OC(=O)NCCOCCOCCOCCOCCOCCOCCOCCOCCC(=O)N3CCc4cc(Cn5nc(-c6ccc7oc(N)nc7c6)c6c(N)ncnc65)ccc4C3)[C@H](OC)C2)C[C@@H](O)[C@H](C)/C=C(\C)[C@@H](O)[C@@H](OC)C(=O)[C@H](C)C[C@H](C)/C=C/C=C/C=C/1C			patients with advanced solid tumours	intravenous, dose not given, grade ≥3		incidence of Mucositis TEAE	10.5%
COc1cc(Nc2ncc(F)c(Nc3ccc4c(n3)NC(=O)C(C)(C)O4)n2)cc(OC)c1OC	Caspase-3 (CASP3, Homo sapiens, UniProt P42574)					IC50	> 10 µM
CC[C@H](C)[C@@H]1NC(=O)[C@@H]2CCCN2C(=O)[C@H](CC(C)C)NC(=O)[C@H](CC(C)C)NC(=O)CNC(=O)[C@@H](NC(=O)[C@@H](NC(=O)[C@H](CC(=O)O)NC(=O)CNC(=O)[C@@H](NC(=O)[C@H](C)NC(=O)CNC(=O)[C@H](CCCCN)NC(=O)[C@H](CC(C)C)NC(=O)[C@H](CC(C)C)NC(=O)[C@H](CCCCN)NC(=O)CNC(=O)[C@@H](NC(=O)[C@@H](N)CC(C)C)C(C)C)C(C)C)C(C)C)CSSC[C@@H](C(=O)O)NC1=O		RNA-seq, item: Pnmt mRNA	mouse traumatic brain injury, frontal cortex and hippocampus	dose not given	relative to: TBI plus compound vs TBI	log2 fold change	-3.57
O=C(Oc1ccc(F)cc1)[c-]1cccc1.[Fe+2].c1cc[cH-]c1		cyclic voltammetry	methanol/DMEM 1:1 with TBAPF6	Pt disk electrode, Ag/AgCl reference, with: scan rate 100 mV/s		oxidation potential	566 mV
O=C(O)CCCOc1ccc(F)cc1-c1cc(-c2ccccc2C(F)(F)F)n(-c2ccccc2)n1			male Crl:CD(SD) rats, kidneys	intravenous, 25 µg/kg, 14 d		organ weight	3.1 ± 0.26 g
COc1cc2c(Oc3ccc4[nH]c(C)cc4c3F)ccnc2cc1OCC1(N)CC1			paediatric refractory sarcoma patients	12 mg		Dizzy incidence	9.1%
